Published values from different studies.
Protocols differ between the studies behind these lines. Values joined by “and” are separate records of one study, mostly repeats; a detail may differ. ± gives the spread as reported. Values after ≈ are worked out from the molar mass of the structure shown.

CC(C)C[C@H](NC(=O)[C@H](Cc1cccc2ccccc12)NC(=O)OCc1ccccc1)C(=O)NC(C[C@@H]1CCNC1=O)C1CO1 (stereo partly shown)
EC50 (Norwalk virus; replicon RNA level, RT-qPCR; HG23 cells, GI.1 replicon; 96 h): > 10 µM

NC(=O)c1ncn([C@@H]2O[C@H](CO)[C@@H](O)[C@H]2O)n1
inactivation activity (Potato virus Y; in vivo; 500 µg/mL): 61% and 50% and 55%

CC(C)c1ccc(/C=C2\N=C(SCC(=O)O)N(c3ccccc3)C2=O)cc1
MIC (Fusarium solani; serial dilution): 12 ± 0.6 µg/mL

C#CCCCC(=O)NCC
inhibition (Escherichia coli; LuxR reporter, antagonist; DH5α sensor strain; 1 µM, added: OHHL 200 nM): 14 ± 1%

CC(C)[C@@H]1NC(=O)[C@@H](CCCCN)NC(=O)[C@H]([C@@H](C)O)NC(=O)[C@@H](CCCN)NC(=O)[C@H](Cc2ccccc2)NC(=O)[C@@H](Cc2ccccc2)NC1=O
IC90 (Balamuthia mandrillaris; CellTiter-Glo; trophozoites): 3.58 µg/mL (≈ 4.86 µM)

CC(C)c1ccc(/C=C2\N=C(SCC(=O)c3ccccc3)N(c3ccccc3)C2=O)cc1
inhibition zone diameter (Fusarium solani; concentration not given): 15 ± 0.12 mm

CC(C)C(=O)Nc1ncncc1-c1cn([C@@H]2O[C@](F)(COC(=O)C(C)C)[C@@H](OC(=O)C(C)C)[C@H]2OC(=O)C(C)C)cn1
EC50 (Dengue virus; viral replication; Huh-7, DENV-2; 48 h): 33 µM

N=C(N)c1ccc(OCc2ccc(-c3ccccc3)cc2COc2ccc(C(=N)N)cc2)cc1
FICI (Klebsiella pneumoniae; checkerboard; ATCC 13883; unit not given, added: rifampicin; lower = stronger synergy): ≤ 0.023

COC(=O)[C@H](Cc1ccc(O)cc1)NCc1cc2ccccc2nc1SC
growth (Pseudomonas aeruginosa; 128 µg/mL, added: pentamidine 100 µM; relative to: control): 52%

CCCCCCCCCC(=O)N[C@@H](Cc1c[nH]c2ccccc12)C(=O)N[C@H](CC(N)=O)C(=O)N[C@@H](CC(=O)O)C(=O)N[C@@H]1C(=O)NCC(=O)N[C@@H](CCCN)C(=O)N[C@@H](CC(=O)O)C(=O)N[C@H](C)C(=O)N[C@@H](CC(=O)O)C(=O)NCC(=O)N[C@H](CO)C(=O)N[C@@H]([C@H](C)CC(=O)O)C(=O)N[C@@H](CC(=O)c2ccccc2N)C(=O)O[C@@H]1C
MIC (Staphylococcus aureus; broth microdilution; MRSA USA300, Mueller-Hinton broth, Mg2+ 10 mg/L; 16 h, 37 °C, added: Ca2+ 1.0 mM): 0.5 µg/mL

COc1nc(N)ncc1-c1cn([C@@H]2O[C@](F)(CO)[C@@H](O)[C@H]2O)cn1
EC50 (Dengue virus; viral replication; Huh-7, DENV-2; 48 h): > 50 µM

N#Cc1c(-c2ccc(OCc3ccccc3)cc2)c(C(N)=O)c(N)n(N)c1=O
viable count (Escherichia coli; time-kill; 1 x MIC, 30 min): 2.69 log CFU/mL

COc1ncc(-c2cn([C@@H]3O[C@](F)(CO)[C@@H](O)[C@H]3O)cn2)cn1
EC50 (Dengue virus; viral replication; Huh-7, DENV-4; 48 h): > 100 µM

COC(=O)[C@H](Cc1c[nH]c2ccccc12)NCc1cc2ccccc2nc1OC
growth (Pseudomonas aeruginosa; 16 µg/mL, added: pentamidine 100 µM; relative to: control): 65.9%

Cc1ccc(CCC(=O)Nc2nnc(S(N)(=O)=O)s2)cc1
MIC (Enterococcus raffinosus; ATCC 49464): 3.06 µM

CC(C)(C)CC(C)(C)c1ccc(OCCO)cc1
IC50 (Phelipanche ramosa; seed germination, inhibitor; added: (±)-GR24 10 nM): 35 µM

Cc1cc(OC(C)C)ccc1C(=O)C(C)(C)NC(=O)c1sccc1C
inhibition (Botrytis cinerea; mycelial growth; B05.10; 0.3 µg/mL): 100%

C[C@H](CCCC(C)(C)O)[C@H]1CC[C@H]2[C@@H]3CC=C4C[C@@H](O)CC[C@]4(C)[C@H]3CC[C@]12C
EC90 (human rotavirus; viral replication; Caco-2, DS-1): 2.42 µM

Cc1c(Cl)cccc1Nc1ccccc1C(=O)O
IC50 (Phelipanche ramosa; seed germination, antagonist; added: 2-PEITC 100 nM): 18 µM

CC(C)C(=O)OC[C@@]1(F)O[C@@H](n2cnc(-c3c[nH]c(=O)nc3N)c2)[C@H](OC(=O)C(C)C)[C@@H]1OC(=O)C(C)C
EC50 (Dengue virus; viral replication; Huh-7, DENV-2; 48 h): > 100 µM

CN[C@H](CC(C)C)C(=O)N[C@H]1C(=O)N[C@@H](CC(N)=O)C(=O)N[C@H]2C(=O)N[C@H]3C(=O)N[C@H](C(=O)N[C@H](C(=O)O)c4cc(O)cc(O)c4-c4cc3ccc4O)[C@H](O)c3ccc(c(Cl)c3)Oc3cc2cc(c3O[C@@H]2O[C@H](CO)[C@@H](O)[C@H](O)[C@H]2O[C@H]2C[C@](C)(N)[C@H](O)[C@H](C)O2)Oc2ccc(cc2Cl)[C@H]1O
post-antibiotic effect (Staphylococcus aureus; MRSA ATCC 43300; 2 × MIC): 0.446 h

C[C@@H](O)[C@H]1C(=O)N2C(C(=O)O)=C(SCCN=CN)C[C@H]12
bacterial load (Escherichia coli; ATCC 25922, female ICR mice, kidney infection, kidney; dose not given): 5.83 log CFU/g and 4.6 log CFU/g and 5.64 log CFU/g and 5.15 log CFU/g and 5.84 log CFU/g and 5.56 log CFU/g

CNC(C)C1CCC(N)C(OC2C(N)CC(N)C(OC3OCC(C)(O)C(NC)C3O)C2O)O1 (stereo not shown)
MIC (Pseudomonas aeruginosa; clinical isolate RKI-No_497/15): 4 µg/mL

N=C(N)c1ccc(OCc2cc(COc3ccc(C(=N)N)cc3)cc(-c3ccccc3)c2)cc1
FICI (Klebsiella pneumoniae; checkerboard; ATCC 13883; unit not given, added: rifampicin; lower = stronger synergy): ≤ 0.016

CC(C)c1ccc(/C=C2\N/C(=N/c3ccccc3)N(N)C2=O)cc1
inhibition zone diameter (Fusarium solani; concentration not given): 14 ± 0.61 mm

COC(=O)[C@@H](NCc1cc2ccccc2nc1OCc1ccccc1)C(C)C
growth (Pseudomonas aeruginosa; 64 µg/mL, added: pentamidine 100 µM; relative to: control): 94.5%

CC(C)n1ncc2c(C(=O)NCC3(C)CNC3)cc(C3CC3)nc21
plaque area (Enterovirus D68; viral replication; RD, US/MO/14-18947; 3 µM; relative to: untreated): 0%

C[C@@H](O)[C@H]1C(=O)N2C(C(=O)O)=C(S[C@@H]3CN[C@H](C(=O)N(C)C)C3)[C@H](C)[C@H]12
MIC (Acinetobacter pittii; broth microdilution; clinical isolate RKI 588/16): ≤ 0.5 µg/mL

COc1ccc(/C=C2\NC(=S)N(c3ccccc3)C2=O)c(OC)c1
inhibition zone diameter (Fusarium solani; concentration not given): 15 ± 0.52 mm

COc1ncc(-c2cn([C@@H]3O[C@](F)(COC(=O)C(C)C)[C@@H](OC(=O)C(C)C)[C@H]3OC(=O)C(C)C)cn2)c(N)n1
EC50 (Dengue virus; viral replication; Huh-7, DENV-2; 48 h): > 100 µM

CCc1nn(C)c2nc(-c3ccc(C(=O)O)cc3)nc(NCc3ccc(F)cc3)c12
parasite number (Cryptosporidium parvum; HCT-8; 3 x EC90, 24 h; relative to: DMSO control): 33.6% and 30.9% and 28.3% and 30.8%

COc1ncc(-c2cn([C@@H]3O[C@](F)(CO)[C@@H](O)[C@H]3O)cn2)c(OC)n1
EC50 (Dengue virus; viral replication; Huh-7, DENV-2; 48 h): > 100 µM

Cc1cc(Nc2ccc(S(F)(F)(F)(F)F)cc2)n2nc(C(C)(F)F)nc2n1
parasite clearance half-life (Plasmodium falciparum; microscopy; human malaria patients; 400 mg, mean): 4.9 h

C[C@@H](CO)CCC[C@@H](C)[C@H]1CC[C@H]2[C@@H]3CC=C4C[C@@H](O)CC[C@]4(C)[C@H]3CC[C@]12C
EC90 (human rotavirus; viral replication; MA104, Wa): 1.73 µM

CC1(C)S[C@@H]2[C@H](NC(=O)[C@H](N)c3ccccc3)C(=O)N2[C@H]1C(=O)O
MIC (Pseudomonas aeruginosa; clinical isolate RKI-No_84/15): > 16 µg/mL

CC(=O)NC[C@H]1CN(c2ccc(N3CCOCC3)c(F)c2)C(=O)O1
MIC50 (Streptococcus pneumoniae; broth microdilution; penicillin-resistant isolates): 0.5 µg/mL (≈ 1.48 µM)

CC(C)C(=O)OC[C@@]1(F)O[C@@H](n2cnc(-c3cnc(N)[nH]c3=O)c2)[C@H](OC(=O)C(C)C)[C@@H]1OC(=O)C(C)C
EC50 (Dengue virus; viral replication; Huh-7, DENV-2; 48 h): > 100 µM

CC(=O)NC[C@H]1CN(c2ccc(N3CCOCC3)c(F)c2)C(=O)O1
MIC (Lactobacillus; ATCC 53103): 5.93 µM

CC(C)C(=O)OC[C@@]1(F)O[C@@H](n2cnc(-c3cnc(=O)[nH]c3)c2)[C@H](OC(=O)C(C)C)[C@@H]1OC(=O)C(C)C
EC50 (Dengue virus; viral replication; Huh-7, DENV-2; 48 h): > 100 µM

Nc1nc(-c2ccccc2)nc2[nH]nc(Nc3ccc(C(F)(F)F)cc3)c12
clinical score (coxsackievirus B3; 31-1-93, NMRI mice, CVB3 chronic myocarditis; oral, 100 mg/kg twice daily, day 28, dosed days 1 to 7, score scale 0 to 7; direction not given): 0.11
